Assay results from different studies.
Each line is one published result; not all experiments were run side by side.
CTSL: Procathepsin L (CTSL, Homo sapiens, UniProt P07711)
Chain of UniProt P07711 (whole entry, looked up): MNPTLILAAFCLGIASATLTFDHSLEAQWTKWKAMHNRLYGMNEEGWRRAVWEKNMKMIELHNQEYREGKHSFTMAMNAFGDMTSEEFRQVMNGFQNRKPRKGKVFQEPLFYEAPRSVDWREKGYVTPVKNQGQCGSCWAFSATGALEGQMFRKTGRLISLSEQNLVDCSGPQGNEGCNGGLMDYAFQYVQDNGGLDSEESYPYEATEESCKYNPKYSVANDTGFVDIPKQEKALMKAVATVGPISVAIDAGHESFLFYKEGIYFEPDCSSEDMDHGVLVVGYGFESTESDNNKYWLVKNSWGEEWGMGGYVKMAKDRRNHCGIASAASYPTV
DRD3: D(3) dopamine receptor (DRD3, Homo sapiens, UniProt P35462)
Chain of UniProt P35462 (whole entry, looked up): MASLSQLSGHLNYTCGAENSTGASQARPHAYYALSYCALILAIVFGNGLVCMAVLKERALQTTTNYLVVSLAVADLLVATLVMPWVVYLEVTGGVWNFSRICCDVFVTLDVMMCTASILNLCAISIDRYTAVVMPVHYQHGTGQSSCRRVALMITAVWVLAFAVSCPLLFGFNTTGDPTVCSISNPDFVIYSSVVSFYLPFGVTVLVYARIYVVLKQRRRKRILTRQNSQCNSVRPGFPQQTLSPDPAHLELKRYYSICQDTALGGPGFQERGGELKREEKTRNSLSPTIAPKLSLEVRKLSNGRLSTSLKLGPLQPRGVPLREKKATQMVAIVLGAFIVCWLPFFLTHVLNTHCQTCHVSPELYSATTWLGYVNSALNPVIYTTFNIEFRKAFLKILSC
Chain of UniProt P52333 (whole entry, looked up): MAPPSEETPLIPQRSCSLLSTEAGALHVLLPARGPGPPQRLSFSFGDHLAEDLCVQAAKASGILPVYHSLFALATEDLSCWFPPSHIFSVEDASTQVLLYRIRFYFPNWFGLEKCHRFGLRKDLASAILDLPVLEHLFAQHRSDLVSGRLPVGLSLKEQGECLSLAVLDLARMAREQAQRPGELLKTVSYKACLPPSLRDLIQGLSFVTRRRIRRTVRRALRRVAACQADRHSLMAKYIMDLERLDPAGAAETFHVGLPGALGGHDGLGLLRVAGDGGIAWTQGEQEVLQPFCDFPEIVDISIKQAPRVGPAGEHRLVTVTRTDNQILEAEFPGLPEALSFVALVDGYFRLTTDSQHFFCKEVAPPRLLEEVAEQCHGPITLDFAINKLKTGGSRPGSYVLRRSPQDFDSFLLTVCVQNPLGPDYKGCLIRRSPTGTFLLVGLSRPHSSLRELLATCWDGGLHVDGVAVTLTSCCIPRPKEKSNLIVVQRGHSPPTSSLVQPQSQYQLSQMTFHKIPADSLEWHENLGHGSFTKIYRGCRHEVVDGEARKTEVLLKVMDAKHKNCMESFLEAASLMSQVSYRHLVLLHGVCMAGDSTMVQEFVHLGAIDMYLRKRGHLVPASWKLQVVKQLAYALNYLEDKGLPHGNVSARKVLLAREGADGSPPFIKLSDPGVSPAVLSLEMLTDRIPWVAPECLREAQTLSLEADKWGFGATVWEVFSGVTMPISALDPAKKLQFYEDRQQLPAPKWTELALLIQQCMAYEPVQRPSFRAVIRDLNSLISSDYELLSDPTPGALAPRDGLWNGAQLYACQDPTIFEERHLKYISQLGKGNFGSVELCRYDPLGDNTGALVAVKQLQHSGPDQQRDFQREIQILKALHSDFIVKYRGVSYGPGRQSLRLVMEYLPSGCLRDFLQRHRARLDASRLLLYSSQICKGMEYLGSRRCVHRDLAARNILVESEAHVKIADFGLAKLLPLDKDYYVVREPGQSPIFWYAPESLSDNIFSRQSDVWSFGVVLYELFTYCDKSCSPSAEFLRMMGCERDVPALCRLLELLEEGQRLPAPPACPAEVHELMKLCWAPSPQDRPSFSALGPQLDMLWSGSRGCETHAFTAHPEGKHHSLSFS
Chain of UniProt O15197 (whole entry, looked up): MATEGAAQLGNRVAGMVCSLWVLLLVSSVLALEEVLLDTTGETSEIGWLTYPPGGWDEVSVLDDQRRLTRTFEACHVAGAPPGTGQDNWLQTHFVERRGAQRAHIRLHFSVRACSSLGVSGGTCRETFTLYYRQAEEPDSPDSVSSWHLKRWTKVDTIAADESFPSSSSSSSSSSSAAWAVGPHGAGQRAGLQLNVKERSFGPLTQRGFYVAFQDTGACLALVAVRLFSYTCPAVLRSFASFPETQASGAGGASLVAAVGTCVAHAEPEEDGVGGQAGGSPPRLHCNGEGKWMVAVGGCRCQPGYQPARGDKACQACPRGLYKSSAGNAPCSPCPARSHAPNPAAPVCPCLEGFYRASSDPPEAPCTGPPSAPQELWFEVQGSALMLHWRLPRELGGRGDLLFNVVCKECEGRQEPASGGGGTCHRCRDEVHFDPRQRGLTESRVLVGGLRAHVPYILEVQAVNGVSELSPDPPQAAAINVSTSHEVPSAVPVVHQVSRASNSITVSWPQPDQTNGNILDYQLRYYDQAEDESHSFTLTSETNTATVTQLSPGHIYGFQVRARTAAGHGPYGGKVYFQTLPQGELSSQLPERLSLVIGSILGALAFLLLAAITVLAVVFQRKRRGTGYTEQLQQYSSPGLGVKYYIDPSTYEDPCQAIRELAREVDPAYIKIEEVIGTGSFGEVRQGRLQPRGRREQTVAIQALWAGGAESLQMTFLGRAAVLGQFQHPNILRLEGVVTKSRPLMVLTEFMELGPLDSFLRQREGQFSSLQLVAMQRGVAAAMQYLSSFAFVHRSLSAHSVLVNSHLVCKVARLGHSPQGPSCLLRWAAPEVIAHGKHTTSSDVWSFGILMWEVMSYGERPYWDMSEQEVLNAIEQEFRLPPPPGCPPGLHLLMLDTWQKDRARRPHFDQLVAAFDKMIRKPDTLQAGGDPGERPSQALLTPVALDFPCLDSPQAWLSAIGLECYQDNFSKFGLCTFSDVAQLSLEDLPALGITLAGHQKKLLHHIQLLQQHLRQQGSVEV
Chain of UniProt Q00532 (whole entry, looked up): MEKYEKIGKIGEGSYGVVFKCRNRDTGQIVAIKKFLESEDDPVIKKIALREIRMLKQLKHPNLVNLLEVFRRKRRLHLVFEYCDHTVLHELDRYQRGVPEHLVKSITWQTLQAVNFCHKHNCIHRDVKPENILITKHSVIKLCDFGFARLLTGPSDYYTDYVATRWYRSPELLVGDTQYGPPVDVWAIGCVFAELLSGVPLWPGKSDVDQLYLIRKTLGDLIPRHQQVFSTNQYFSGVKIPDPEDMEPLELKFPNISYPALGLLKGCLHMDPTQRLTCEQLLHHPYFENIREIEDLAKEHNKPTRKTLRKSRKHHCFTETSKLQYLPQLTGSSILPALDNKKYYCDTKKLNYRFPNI
Chain of UniProt Q70EK9 (whole entry, looked up): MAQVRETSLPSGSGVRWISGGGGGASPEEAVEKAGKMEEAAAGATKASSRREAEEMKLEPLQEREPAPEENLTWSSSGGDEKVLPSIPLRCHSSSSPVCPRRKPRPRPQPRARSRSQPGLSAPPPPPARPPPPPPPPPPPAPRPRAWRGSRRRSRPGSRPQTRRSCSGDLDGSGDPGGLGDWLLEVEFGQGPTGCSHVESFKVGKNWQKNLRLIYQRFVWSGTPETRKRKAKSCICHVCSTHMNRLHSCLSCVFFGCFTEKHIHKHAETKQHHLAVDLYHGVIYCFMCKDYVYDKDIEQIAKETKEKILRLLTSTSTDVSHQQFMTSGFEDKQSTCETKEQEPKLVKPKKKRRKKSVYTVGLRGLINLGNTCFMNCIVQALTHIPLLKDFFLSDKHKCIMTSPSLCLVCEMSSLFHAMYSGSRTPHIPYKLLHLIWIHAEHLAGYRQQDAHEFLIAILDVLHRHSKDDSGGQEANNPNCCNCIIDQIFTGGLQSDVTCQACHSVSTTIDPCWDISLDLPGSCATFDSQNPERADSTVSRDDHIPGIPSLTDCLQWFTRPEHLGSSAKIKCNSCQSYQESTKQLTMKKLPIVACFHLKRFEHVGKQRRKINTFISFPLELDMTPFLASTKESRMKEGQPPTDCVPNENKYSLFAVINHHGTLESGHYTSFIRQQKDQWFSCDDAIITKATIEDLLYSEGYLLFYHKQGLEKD
Chain of UniProt P10721 (whole entry, unmodified, looked up): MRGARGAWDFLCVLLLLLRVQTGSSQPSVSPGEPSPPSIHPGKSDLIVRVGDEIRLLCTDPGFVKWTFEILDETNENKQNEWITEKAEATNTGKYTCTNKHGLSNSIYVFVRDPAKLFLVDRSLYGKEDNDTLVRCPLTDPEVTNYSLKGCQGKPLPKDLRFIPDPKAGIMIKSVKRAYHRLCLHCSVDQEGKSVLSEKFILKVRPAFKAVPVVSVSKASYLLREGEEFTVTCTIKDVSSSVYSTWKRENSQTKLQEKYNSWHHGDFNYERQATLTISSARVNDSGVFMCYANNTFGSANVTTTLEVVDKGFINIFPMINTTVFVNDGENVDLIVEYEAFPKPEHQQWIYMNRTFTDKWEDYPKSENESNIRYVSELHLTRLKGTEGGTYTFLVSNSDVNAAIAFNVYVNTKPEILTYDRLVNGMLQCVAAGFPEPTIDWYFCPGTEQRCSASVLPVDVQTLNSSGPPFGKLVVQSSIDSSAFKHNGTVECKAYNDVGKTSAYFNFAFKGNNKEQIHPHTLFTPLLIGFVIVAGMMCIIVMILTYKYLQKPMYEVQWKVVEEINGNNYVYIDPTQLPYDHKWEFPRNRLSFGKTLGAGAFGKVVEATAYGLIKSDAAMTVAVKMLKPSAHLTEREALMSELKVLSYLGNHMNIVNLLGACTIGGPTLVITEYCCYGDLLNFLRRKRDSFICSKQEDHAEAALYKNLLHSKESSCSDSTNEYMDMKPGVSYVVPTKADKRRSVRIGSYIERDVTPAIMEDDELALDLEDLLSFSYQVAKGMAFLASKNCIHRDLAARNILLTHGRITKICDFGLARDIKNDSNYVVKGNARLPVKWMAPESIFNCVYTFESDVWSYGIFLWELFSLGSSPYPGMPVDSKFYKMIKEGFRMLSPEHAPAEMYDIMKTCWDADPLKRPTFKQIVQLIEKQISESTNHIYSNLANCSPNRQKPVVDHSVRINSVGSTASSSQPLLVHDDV

The viability of `CC(=NNC(=O)c1ccccc1O)c1ccc(Nc2nnc(-c3ccc(Cl)cc3)c3ccccc23)cc1` is reported as 61.6% (MCF7; cell growth or viability, MTT; 2.5 µM, 24 h).
`O=C(/C=C/c1ccc(O)c(O)c1)c1ccc(O)cc1O` has a remaining activity of 1.16% (CTSL; enzyme activity, inhibitor; 100 µM).
`CCCCC(=O)Nc1ccc(-c2ccc3ncn(CCC)c(=O)c3c2)cn1` has a remaining binding of 98% (Cyclin-dependent kinase 2 homolog (CRK2, Plasmodium falciparum, UniProt P61075); binding, competition with immobilised ligand; 0.5 µM).
With `C=CC(=O)N1CCC(COCC(=O)N2CCN(c3nc(-c4cnc(N)nc4C(F)F)nc(N4CCOC[C@@H]4C)n3)CC2)CC1` the remaining binding was 95% (Mast/stem cell growth factor receptor Kit (KIT, Homo sapiens, UniProt P10721, V559D); binding, competition with immobilised ligand; 1 µM).
With `CC[C@H](C)[C@H](NC(=O)[C@H](CCC(N)=O)NC(=O)[C@H](CC(C)C)NC(=O)[C@H](CCSC)NC(=O)[C@H](CCCCN)NC(=O)[C@H](CO)NC(=O)[C@H](CO)NC(=O)[C@H](CCSC)NC(=O)[C@H](CC(C)C)NC(=O)[C@H](CC(N)=O)NC(=O)[C@@H](NC(=O)[C@@H](NC(=O)[C@H](CO)NC(=O)[C@H](CC(C)C)NC(=O)[C@H](CS)NC(=O)[C@H](CCCNC(=N)N)NC(=O)[C@H](CC(=O)O)NC(=O)[C@H](Cc1c[nH]c2ccccc12)NC(=O)[C@H](Cc1ccccc1)NC(=O)[C@H](C)NC(=O)[C@H](CCC(=O)O)NC(=O)[C@@H](N)CCCCN)C(C)C)[C@@H](C)CC)C(=O)N[C@@H](CC(N)=O)C(=O)N[C@@H](C)C(=O)O` the remaining activity was 97% (Glycogen synthase kinase-3 beta (GSK3B, Homo sapiens, UniProt P49841); enzyme activity, inhibitor, radiometric; 1 µM, 20 min).
`Cc1coc2c1C(=O)C(=O)c1c-2ccc2c(C)cccc12` has a remaining activity of 96.1% (CTSL; enzyme activity, inhibitor; 100 µM).
The viability of `O=C(Nc1ccc(Oc2nnc(-c3ccc(Cl)cc3)c3ccccc23)cc1)c1ccccc1` is reported as 4.74% (MCF7; cell growth or viability, MTT; 1.25 µM, 24 h).
The remaining activity of `CNc1ncc2c(/C=C/C(=O)N3CCC(OC)CC3)nn(Cc3cccc(C(F)(F)F)c3)c2n1` is reported as 124% (G protein-coupled receptor kinase 5 (GRK5, Homo sapiens, UniProt P34947); enzyme activity, inhibitor, radiometric; 1 µM).
The remaining activity of `O=C(C=Cc1ccc(O)c(O)c1)c1ccc(O)c(O)c1O` is reported as 35.8% (CTSL; enzyme activity, inhibitor; 100 µM).
For `Cc1noc(NS(=O)(=O)c2ccc(N=NN(O)c3ccccc3)cc2)c1C`, the inhibition was 99.9% (ABTS scavenging; 300 µg/mL).
`O=Cc1c[nH]c2ccccc12` gave a remaining activity of 129% (CTSL; enzyme activity, inhibitor; 100 µM).
With `Cc1cc([C@@H](C)Nc2ccccc2C(=O)O)c2nc(N3CCC(F)(F)CC3)c(C#N)c(=O)n2c1` the remaining binding was 100% (Tyrosine-protein kinase JAK3, JH1 (JAK3, Homo sapiens, UniProt P52333); binding, competition with immobilised ligand; 10 µM).
For `CCNC(=O)c1c(C)[nH]c(C)c1S(=O)(=O)Nc1ccc(C(F)(F)F)c(Cl)c1`, the Emax was 108% (DRD3; β-arrestin recruitment, agonist; 90 min).
`OCC1OC(OCC2OC(OCC3OC(OC4(CO)OC(CO)C(O)C4O)C(O)C(O)C3O)C(O)C(O)C2O)C(O)C(O)C1O` (centres unmarked) gave a remaining activity of 98.4% (CTSL; enzyme activity, inhibitor; 100 µM).
With `Nc1ncnc2occ(-c3ccc(NC(=O)Nc4cc(C(F)(F)F)ccc4F)cc3)c12` the remaining signal was 0% (Ephrin type-B receptor 6 (EPHB6, Homo sapiens, UniProt O15197); cell-free assay; 20 µM).
`C1=C/COCc2cc(ccc2OCCN2CCCC2)Nc2nccc(n2)-c2cccc(c2)COC/1` has a remaining binding of 100% (Protein kinase C eta type (PRKCH, Homo sapiens, UniProt P24723); binding; 0.1 µM).
`CC[C@H](C)[C@H](NC(=O)[C@H](CCC(N)=O)NC(=O)[C@H](CCCNC(=N)N)NC(=O)[C@H](CO)NC(=O)[C@H](Cc1c[nH]cn1)NC(=O)[C@@H]1CCCN1C(=O)[C@H](C)NC(=O)[C@H](CO)NC(=O)[C@H](CC(C)C)NC(=O)CNC(=O)[C@@H]1CCCN1C(=O)[C@H](CCC(N)=O)NC(=O)[C@H](CCC(N)=O)NC(=O)[C@H](CCCNC(=N)N)NC(=O)[C@H](CO)NC(=O)CNC(=O)[C@H](CO)NC(=O)[C@H](CO)NC(=O)[C@H](CCC(=O)O)NC(=O)[C@@H]1CCCN1C(=O)[C@@H]1CCCN1C(=O)[C@@H]1CCCN1C(=O)[C@H](CO)NC(=O)[C@H](CC(C)C)NC(=O)[C@H](CO)NC(=O)[C@@H](NC(=O)CN)[C@@H](C)O)C(=O)N1CCC[C@H]1C(=O)N[C@@H](C)C(=O)N1CCC[C@H]1C(=O)N[C@@H](CCC(N)=O)C(=O)NCC(=O)N[C@@H](C)C(=O)N[C@H](C(=O)N[C@@H](CC(C)C)C(=O)N[C@H](C(=O)N[C@@H](CCC(N)=O)C(=O)N[C@@H](CCCNC(=N)N)C(=O)N[C@@H](CCC(=O)O)C(=O)N[C@@H](CCCCN)C(=O)N[C@@H](CC(=O)O)C(=O)N[C@@H](CC(C)C)C(=O)N1CCC[C@H]1C(=O)N[C@@H](CC(N)=O)C(=O)N[C@@H](Cc1ccc(O)cc1)C(=O)N[C@@H](CC(N)=O)C(=O)N[C@@H](Cc1c[nH]c2ccccc12)C(=O)N[C@@H](CC(N)=O)C(=O)N[C@@H](CO)C(=O)N[C@@H](Cc1ccccc1)C(=O)NCC(=O)N[C@@H](CC(C)C)C(=O)N[C@@H](CCCNC(=N)N)C(=O)N[C@@H](Cc1ccccc1)C(N)=O)C(C)C)C(C)C` has an Emax of 96.4% (KiSS-1 receptor (KISS1R, Homo sapiens, UniProt Q969F8, Q123A); inositol phosphate, agonist; HEK293).
`COC(=O)c1ccccc1O` gave an inhibition of 14% (Ubiquitin carboxyl-terminal hydrolase 51 (USP51, Homo sapiens, UniProt Q70EK9); enzyme activity, inhibitor; 5 µM).
`Nc1ccn([C@@H]2O[C@H](CO)[C@@H](O)C2(F)F)c(=O)n1` has a viability of 93.3% (HEK293; cell growth or viability, MTT; 0.078125 µg/mL, 48 h).
For `Cc1[nH]c(C)c(S(=O)(=O)Nc2ccc(Cl)c(Cl)c2)c1C(=O)N1CCC(F)(F)C1`, the Emax was 92% (DRD3; β-arrestin recruitment, agonist; 90 min).
`O=c1c(O)c(-c2ccc(O)c(O)c2)oc2cc(O)ccc12` has a remaining activity of 74.7% (CTSL; enzyme activity, inhibitor; 100 µM).
`Cc1cc(NS(=O)(=O)c2ccc(N=NN(O)c3ccccc3)cc2)no1` has an inhibition of 71.2% (ABTS scavenging; 180 µg/mL).
`COc1cc(-c2cncc3c2CN(C)Cc2cc(N4CCNCC4)ccc2-3)cc(OC)c1OC` gave a remaining activity of 108% (Cyclin-dependent kinase-like 1 (CDKL1, Homo sapiens, UniProt Q00532); enzyme activity, inhibitor; 1 µM).

Some of these lines once more:
For `CCNC(=O)c1c(C)[nH]c(C)c1S(=O)(=O)Nc1ccc(C(F)(F)F)c(Cl)c1`, the Emax was 108% (DRD3; β-arrestin recruitment, agonist; 90 min).
The viability of `O=C(Nc1ccc(Oc2nnc(-c3ccc(Cl)cc3)c3ccccc23)cc1)c1ccccc1` is reported as 4.74% (MCF7; cell growth or viability, MTT; 1.25 µM, 24 h).
The viability of `CC(=NNC(=O)c1ccccc1O)c1ccc(Nc2nnc(-c3ccc(Cl)cc3)c3ccccc23)cc1` is reported as 61.6% (MCF7; cell growth or viability, MTT; 2.5 µM, 24 h).
